# Measurements gathered from unrelated publications.
# Numbered parts are unrelated; each lists some results of a single study.

# Sample 1
# Target: Protein C-ets-1 (ETS1, Homo sapiens, UniProt P14921, residues 1-441, K379A, full length assumed)
# Method: protein-binding microarray
# Form: double-stranded DNA, one strand shown
# Sample: in vitro
# Concentration: not given
# Notes: k-mer, scored over probes, only values ≥0.25
# Direction: higher = stronger binding
# Construct (chain): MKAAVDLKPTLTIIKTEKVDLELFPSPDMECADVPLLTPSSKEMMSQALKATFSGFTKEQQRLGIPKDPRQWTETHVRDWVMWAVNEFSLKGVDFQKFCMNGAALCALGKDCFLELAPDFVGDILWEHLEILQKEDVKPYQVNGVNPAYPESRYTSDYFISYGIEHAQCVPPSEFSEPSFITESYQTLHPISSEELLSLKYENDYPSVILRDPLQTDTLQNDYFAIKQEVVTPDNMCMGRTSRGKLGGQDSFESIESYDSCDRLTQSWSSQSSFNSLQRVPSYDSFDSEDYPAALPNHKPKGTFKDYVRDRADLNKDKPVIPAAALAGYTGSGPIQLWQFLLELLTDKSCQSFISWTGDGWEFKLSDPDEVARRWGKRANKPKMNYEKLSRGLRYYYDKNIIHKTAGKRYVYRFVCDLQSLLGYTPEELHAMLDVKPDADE
Strand,E-score
ATGTTTCC,0.26
ATTCCCGG,0.344
ACCGGAAT,0.413
AATACCGC,0.252
CCGGCGCC,0.344

# Sample 2
# Cell line: HEK-293T
# Read-out: pseudovirus infection
# Method: FDA-approved drug library screen
# Organism: VSV pseudotyped with SARS-CoV-2 spike
# Concentration: 10 µM
# Time: 16 h
# Reference: vehicle-treated
Compound,GFP-positive cells [%]
CC1Cc2ccccc2N1NC(=O)c1ccc(Cl)c(S(N)(=O)=O)c1 (stereo not drawn),82
CC(C)OC(=O)C(C)(C)Oc1ccc(C(=O)c2ccc(Cl)cc2)cc1,79.5
N[C@@H](Cc1ccc(O)c(O)c1)C(=O)O,86.1
O=C(c1ccccc1)c1ccc2n1CCC2C(=O)O (stereo not drawn),81.3

# Sample 3
# Target: Replicase polyprotein 1ab, polymerase (rep, Severe acute respiratory syndrome coronavirus 2, UniProt P0DTD1)
# Read-out: enzyme activity
# Mode: inhibitor
# Concentration: 20 µM
Compound,inhibition [%]
CC(=O)N1CCN(C)CC1,-19.5
CS(=O)(=O)c1ccc(-c2cc(Br)sc2-c2ccc(F)cc2)cc1,-0.45
COc1ccc2nc3cc(Cl)ccc3c(Nc3cc(CN4CCCC4)c(O)c(CN4CCCC4)c3)c2n1,95.4
CCN(CC)Cc1cc(Nc2ccnc3cc(Cl)ccc23)ccc1O,-5.28
O=c1c(O)c(-c2ccc(O)cc2)oc2cc(O)cc(O)c12,9.99
COc1[nH]c2ccc(F)cc2c1C(=O)OCC1CCN(CCNS(C)(=O)=O)CC1,2.82
C[N+]1(C)CCC(OC(=O)C(c2ccccc2)c2ccccc2)CC1,0.86
O=c1c2ccccc2nc2n1CCCCC2,-0.75
CCC(C)SSc1ncc[nH]1 (stereo not drawn),-1.01
CSCC1CN(/N=C/c2ccc([N+](=O)[O-])o2)C(=O)O1 (stereo not drawn),-5.51
COc1ccc(CCc2nc3cc(-c4c(C)noc4C)ccc3n2C[C@H](C)N2CCOCC2)cc1Cl,-4.93
CN1CCN(CCCN2c3ccccc3Sc3ccc(C(F)(F)F)cc32)CC1,-1.47
OC[C@H]1O[C@@H](Oc2cc3c(O)cc(O)cc3[o+]c2-c2ccc(O)c(O)c2)[C@H](O)[C@@H](O)[C@@H]1O,58.6
CC(C(=O)O)c1cccc(C(=O)c2ccccc2)c1 (stereo not drawn),20.3
CC12CCC(C(Br)C1=O)C2(C)C (stereo not drawn),0.07
COc1c(C)c(C(=O)c2ccc(N)c(C(=O)O)c2)n2ccccc12,5.45
Cc1cc(N2CCOCC2)cc2[nH]c(-c3c(NC[C@@H](O)c4cccc(Cl)c4)cc[nH]c3=O)nc12,4.04
COc1cc(N2CCC(O)CC2)ccc1Nc1cc(Nc2ccccc2S(=O)(=O)C(C)C)c2cc[nH]c2n1,4.16
CC1=C(/C=C/C(C)=C/C=C/C(C)=C/C(=O)Nc2ccc(O)cc2)C(C)(C)CCC1,-5.55
Nc1[nH]nc2nnc(-c3c(-c4ccccc4)nn4ccccc34)cc12,10.6
C1CCC2(CC1)CCNCC2,0.05
CC(C)(C)NC[C@H](O)COc1nsnc1N1CCOCC1,-4.79
O=C(O)C(Cc1c[nH]c2ccccc12)N1C(=O)c2ccccc2C1=O (stereo not drawn),2.25
Cc1nc(Nc2cnn(C3CCNCC3)c2)nc2c1N(C)C(=O)c1cc3ccccc3cc1N2C,17.3
NC(=O)c1noc([C@H](CCCC2CCCCC2)CC(=O)NO)n1,-3.11

# Sample 4
# Target: RNA binding protein fox-1 homolog 2, RRM domain, GST-SBP tag (RBFOX2, Homo sapiens, UniProt O43251-10, residues 100-194)
# Method: RNA Bind-n-Seq
# Form: RNA
# Sample: in vitro
# Concentration: 365 nM
# Notes: natural RNA segment, single round, ends assumed
# Reference: no-protein control
# Direction: higher = stronger binding
# Shared flanks, not repeated: GGGAGUUCUACAGUCCGACGAUC … UGGAAUUCUCGGGUGCCAA
# Construct (chain): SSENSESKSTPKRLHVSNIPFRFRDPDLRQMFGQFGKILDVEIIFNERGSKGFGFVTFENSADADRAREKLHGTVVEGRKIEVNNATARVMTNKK
Strand,RBNS enrichment (R)
UGCCAGGGUCCCCUGGGAAGAUGCCCCCAAGACACCUGCCCCAAGUGGGUGGAUAUCUGCCUUCCUGCUGCAAGUGGAGGCAGGUCCAGCAGCCCCUCUUCAGAGCCCCU,0.296
GAUUUAGGUGGAAGAGCAGCCAUGUUUGAAGGGCACAUGUGAUGAGUGGGGGGCAGCAAGAUGCCAUUUCUGCAUCUCCCAGAAGGGAUGAGUCUUUGUCCCGAUGCAAG,2.1
CCUUGGCUUGGCUGGUAUAAGUGUGUCAUCCGGACCACCAAACUUCAGAUUAAGCUGUUACUGAGUGAGACACGAGAAGAAUGGUGUUCGCUGGUCUGUCGGCUGUGUUC,0.891
UUGAAUUCCUGACCUCAAAUGAUCCACGCACCUCAGCCUCCCAAAGUGCUGGAUUACAGGCAUGAGCCACCACGCCCAGCCAAAGGUUAUAAUCUGAUGGAGAGAGACAC,0.525
CUGUCAGAGCCCUGAGGGGCAUCCAGUGGGUACAGACCCAGGCGGGCAGCGAGGGAAGGAGGGAGGAGGCAUCUUCCCUGAAGCCCCCAAACUGGACCCCUUCUUCAGAC,0.277
UGGCACAGUGCUCACGCCGCCUUUAUUUAUUGGACCAGAAACACUCACAUGUCACUUCCAGAGGAACGGGGGACAGCCAGGCUCGCCCAUGGGCCUUCAGGAAUAUUUAU,0.399
CAUUUUAUUUUAGGGGCCAGAUCUAACAUUGUAGUGUCUUUCACCAGAUAGACUUCUACUGUUUCAUCAAACUCCCUUCUUAACUAGACCUAGACUUUCUACUCCAAUCA,0.2
CACUGGCUCCGGGUCUACAUGGUGGGAGGAUCAGGAUGCUAAUGUUUCCCCUCUUUGGUUCUCAAAUAGCAUAGUUUAAUAACGAGUCAGACCGUAUUACAACAAAAACA,0.569

# Sample 5
# Target: Replicase polyprotein 1ab, main protease (rep, Severe acute respiratory syndrome coronavirus 2, UniProt P0DTD1)
# Read-out: enzyme activity
# Mode: inhibitor
# Concentration: 20 µM
SMILES,inhibition [%]
C=CCN1CCc2cc(O)c(O)cc2C(c2ccccc2)C1 (stereo not drawn),3.95
O=C1OC2(c3cc(I)c(O)c(I)c3Oc3c2cc(I)c(O)c3I)c2c(Cl)c(Cl)c(Cl)c(Cl)c21,92.1
O=C(O)c1cc(N2N=C(C(F)(F)F)/C(=C/c3ccc(-c4ccccc4)o3)C2=O)ccc1Cl,35.4
O=C(c1ccc(Cl)cc1)c1cc([N+](=O)[O-])ccc1N1CCOCC1,60.2

# Sample 6
# Target: Sal-like protein 4, full length isoform B (SALL4, Homo sapiens, UniProt Q9UJQ4-2, residues 1-616)
# Method: universal PBM
# Form: double-stranded DNA, one strand shown
# Sample: in vitro
# Concentration: not given
# Notes: 8-mer, flanks averaged, mean of replicates
# Direction: higher = stronger binding
# Construct (chain): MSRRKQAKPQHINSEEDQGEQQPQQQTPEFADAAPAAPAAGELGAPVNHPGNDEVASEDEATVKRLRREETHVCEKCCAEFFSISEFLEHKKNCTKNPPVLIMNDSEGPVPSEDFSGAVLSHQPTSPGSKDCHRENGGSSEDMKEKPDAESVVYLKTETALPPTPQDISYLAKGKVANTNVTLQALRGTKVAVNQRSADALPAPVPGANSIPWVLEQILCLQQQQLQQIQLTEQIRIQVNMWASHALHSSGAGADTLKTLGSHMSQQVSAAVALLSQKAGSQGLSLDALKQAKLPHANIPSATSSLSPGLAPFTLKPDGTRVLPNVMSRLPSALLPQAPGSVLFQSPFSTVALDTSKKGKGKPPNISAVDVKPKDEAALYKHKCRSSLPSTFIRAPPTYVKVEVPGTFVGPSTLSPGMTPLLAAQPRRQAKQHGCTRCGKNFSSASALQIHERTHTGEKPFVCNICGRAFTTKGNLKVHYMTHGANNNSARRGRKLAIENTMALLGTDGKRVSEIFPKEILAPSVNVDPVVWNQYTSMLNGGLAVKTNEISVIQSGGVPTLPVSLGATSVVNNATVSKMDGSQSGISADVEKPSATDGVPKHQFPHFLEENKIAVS
Strand,E-score
CCCATTCG,-0.181
GATAAAGC,0.103
TATCGTAA,0.233
ACCTAGGC,-0.223
CGGGTCCA,-0.313
CGGATGAG,-0.0964
CCGGGAGA,-0.185
CTACAAGC,-0.114

# Some of these lines once more (sample 5):
SMILES,inhibition [%]
C=CCN1CCc2cc(O)c(O)cc2C(c2ccccc2)C1 (stereo not drawn),3.95
O=C1OC2(c3cc(I)c(O)c(I)c3Oc3c2cc(I)c(O)c3I)c2c(Cl)c(Cl)c(Cl)c(Cl)c21,92.1
O=C(O)c1cc(N2N=C(C(F)(F)F)/C(=C/c3ccc(-c4ccccc4)o3)C2=O)ccc1Cl,35.4
O=C(c1ccc(Cl)cc1)c1cc([N+](=O)[O-])ccc1N1CCOCC1,60.2
